{"data": "Results collected from several papers", "note": "Compare with care: the assays were run in different laboratories. ± marks the error that the study gave."}
{"Compound": "CCCCC[C@@H]1NC(=O)[C@@H](C)N(C)C(=O)[C@H](CCCCC)NC(=O)[C@@H](C)N(C)C(=O)[C@H](CCCCC)NC(=O)[C@@H](C)N(C)C(=O)[C@H](CCCCC)NC(=O)[C@@H](C)N(C)C1=O", "assay": "PAMPA", "conditions": "500 µM, pH 7.4, UV/ELSD/MS detection", "measurement": "log Papp", "value": -5.5}
{"Compound": "CSCC[C@H](NC(=O)CNC(=O)[C@H](CCCCN)NC(=O)[C@H](CC(C)C)NC(=O)[C@@H]1CCCN1C(=O)[C@H](CO)NC(=O)[C@H](Cc1c[nH]cn1)NC(=O)[C@H](Cc1c[nH]c2ccccc12)NC(=O)[C@H](CCCNC(=N)N)NC(=O)[C@H](CC(C)C)NC(=O)[C@H](CCCNC(=N)N)NC(=O)[C@H](Cc1c[nH]c2ccccc12)NC(=O)[C@H](CS)NC(=O)CCCCCNC(=O)CN1CCN(CC(=O)O)CCN(CC(=O)O)CCN(CC(=O)O)CC1)C(=O)O [copper-64 labelled]", "assay": "ex vivo biodistribution", "system": "C57BL/6J mice bearing B16-F10 tumours, thymus", "conditions": "intravenous, 1.85 MBq, 18 h", "measurement": "tissue uptake", "value": "1.31 %ID/g"}
{"Compound": "O=C1NC2(CC2)COc2ncc(F)cc2[C@H]2COCCN2c2ccn3ncc1c3n2", "system": "Sprague-Dawley rat, male, liver", "conditions": "oral, 2.5 mg/kg/day, 4 weeks, end of treatment", "measurement": "organ-to-brain weight ratio", "value": "637 ± 68.8%"}
{"Compound": "COc1ccc([C@@H]2CC(=O)c3c(O)cc(O[C@@H]4O[C@H](CO)[C@@H](O)[C@H](O)[C@H]4O[C@@H]4O[C@@H](C)[C@H](O)[C@@H](O)[C@H]4O)cc3O2)cc1O", "system": "male Sprague-Dawley rats, lean, urine", "conditions": "oral, 100 mg/kg, 48 h", "how to read": "baseline: oral dose", "measurement": "urinary recovery", "value": "0.001 ± 0.0004%"}
{"Compound": "CC(C)[C@@H]1NC(=O)CNC(=O)[C@H](CC(N)=O)NC(=O)[C@H](CCCNC(=N)N)NC(=O)[C@H](Cc2ccc(O)cc2)NC(=O)[C@H](C(C)C)NC(=O)[C@@H](NC(=O)[C@@H](NC(=O)[C@H](CC(N)=O)NC(=O)[C@H](Cc2c[nH]c3ccccc23)NC(=O)[C@H](C)NC(=O)[C@H](Cc2ccccc2)NC(=O)CNC(=O)[C@H](CCCCN)NC(=O)[C@H](Cc2ccccc2)NC(=O)[C@H](Cc2ccccc2)NC(=O)[C@H](CCCCN)NC(=O)OCC2c3ccccc3-c3ccccc32)C(C)C)CSSC[C@@H](C(=O)N[C@@H](Cc2c[nH]cn2)C(=O)N[C@@H](CCCNC(=N)N)C(=O)N[C@@H](CCCNC(=N)N)C(=O)N[C@@H](C)C(=O)N[C@@H](CC(N)=O)C(N)=O)NC(=O)[C@H](C(C)C)NC(=O)[C@H](CCCNC(=N)N)NC1=O", "system": "ICR mouse, blood", "conditions": "intramammary, 10 mg/kg, day 5, 3 d dosing", "measurement": "globulin", "value": "18.85 ± 0.06 g/L"}
{"Compound": "Cc1ccccc1-c1ccc(-c2nc(-c3ccc(CN(C)CCCC(=O)O)c([18F])c3)no2)cc1C(F)(F)F", "system": "rat, blood", "conditions": "1 h", "measurement": "tracer uptake", "value": "0.06 %ID/g"}
{"Compound": "COc1cc2ncnc(Oc3ccc(Nc4nccc5[nH]cc(-c6ccc(F)cc6)c(=O)c45)cc3F)c2cc1OC", "system": "Sprague-Dawley rat", "conditions": "oral, 50 mg/kg once daily, 28 days", "how to read": "baseline: vehicle", "measurement": "body weight gain", "value": "32.2%"}
{"Compound": "CC[C@H](C)[C@H](NC(=O)[C@H](CCCCN)NC(=O)CNC(=O)[C@H](CC(C)C)NC(=O)[C@H](Cc1ccccc1)NC(=O)[C@H](CCCCN)NC(=O)[C@H](CO)NC(=O)[C@H](Cc1ccccc1)NC(=O)[C@H](Cc1c[nH]c2ccccc12)NC(=O)[C@H](CCC(N)=O)NC(=O)[C@@H](NC(=O)[C@H](Cc1ccccc1)NC(=O)CCCCCNC(=O)CN1CCN(CC(=O)O)CCN(CC(=O)O)CCN(CC(=O)O)CC1)C(C)C)C(=O)N[C@@H](CCC(=O)O)C(=O)N1CCC[C@H]1C(=O)N[C@@H](CC(=O)O)C(=O)N[C@H](C(=O)N[C@@H](CO)C(=O)N[C@@H](CCC(N)=O)C(=O)N[C@H](C(=O)N[C@@H](CCC(N)=O)C(=O)N[C@@H](CC(=O)O)C(=O)N1CCC[C@H]1C(=O)N[C@@H](CC(N)=O)C(=O)N[C@@H](CC(=O)O)C(=O)N[C@@H](CCC(N)=O)C(=O)N[C@@H](Cc1ccc(O)cc1)C(=O)N[C@@H](CCC(=O)O)C(=O)N1CCC[C@H]1C(=O)N[C@@H](Cc1ccccc1)C(=O)O)C(C)C)C(C)C [copper-64 labelled]", "assay": "dynamic PET", "system": "mouse both sexes, CT26 tumour, untreated, tumour", "conditions": "intravenous, 100 µCi/mouse, 130 s", "measurement": "SUVmean", "value": "0.49 SUV"}
{"Compound": "CN1Cc2cc(Cl)ccc2-n2c(nnc2C2CCN(c3cccc([18F])n3)CC2)C1", "system": "C57BL/6 mouse male, pancreas", "conditions": "intravenous, 3.7 MBq, 60 min", "measurement": "tissue uptake", "value": "5.77 ± 1.31 %ID/g"}
{"Compound": "CC[C@H](C)[C@H](NC(=O)[C@H](CCCNC(=N)N)NC(=O)[C@H](CCCCN)NC(=O)[C@H](Cc1ccc(O)cc1)NC(=O)[C@H](CC(=O)O)NC(=O)[C@H](C)NC(=O)CNC(=O)CCOCCOCCOCCNC(=O)CN1CCN(CC(=O)O)CCN(CC(=O)O)CCN(CC(=O)O)CC1)C(=O)N[C@H](C(=O)N[C@H](C(=O)N[C@@H](CCCCN)C(=O)N[C@H](C(=O)N[C@@H](CC(N)=O)C(N)=O)C(C)C)C(C)C)[C@@H](C)O [copper-64 labelled]", "assay": "ex vivo gamma counting", "system": "C57BL/6J male mice, B16-F10 tumour, bone", "conditions": "intravenous, 1.85 MBq, 100 min", "measurement": "tissue uptake", "value": "0.508 ± 0.049 %ID/g"}
{"Compound": "CC(CCC(=O)NCC(=O)O)C1CCC2C3C(O)CC4CC(OC5OC(C(=O)O)C(O)C(O)C5O)CCC4(C)C3CCC12C (centres unmarked)", "system": "men, T/C genotype, plasma", "conditions": "dose not given, geometric mean", "measurement": "plasma concentration", "value": "0.0699 µg/mL"}
{"note": "Some of these lines once more:"}
{"Compound": "CC[C@H](C)[C@H](NC(=O)[C@H](CCCCN)NC(=O)CNC(=O)[C@H](CC(C)C)NC(=O)[C@H](Cc1ccccc1)NC(=O)[C@H](CCCCN)NC(=O)[C@H](CO)NC(=O)[C@H](Cc1ccccc1)NC(=O)[C@H](Cc1c[nH]c2ccccc12)NC(=O)[C@H](CCC(N)=O)NC(=O)[C@@H](NC(=O)[C@H](Cc1ccccc1)NC(=O)CCCCCNC(=O)CN1CCN(CC(=O)O)CCN(CC(=O)O)CCN(CC(=O)O)CC1)C(C)C)C(=O)N[C@@H](CCC(=O)O)C(=O)N1CCC[C@H]1C(=O)N[C@@H](CC(=O)O)C(=O)N[C@H](C(=O)N[C@@H](CO)C(=O)N[C@@H](CCC(N)=O)C(=O)N[C@H](C(=O)N[C@@H](CCC(N)=O)C(=O)N[C@@H](CC(=O)O)C(=O)N1CCC[C@H]1C(=O)N[C@@H](CC(N)=O)C(=O)N[C@@H](CC(=O)O)C(=O)N[C@@H](CCC(N)=O)C(=O)N[C@@H](Cc1ccc(O)cc1)C(=O)N[C@@H](CCC(=O)O)C(=O)N1CCC[C@H]1C(=O)N[C@@H](Cc1ccccc1)C(=O)O)C(C)C)C(C)C [copper-64 labelled]", "assay": "dynamic PET", "system": "mouse both sexes, CT26 tumour, untreated, tumour", "conditions": "intravenous, 100 µCi/mouse, 130 s", "measurement": "SUVmean", "value": "0.49 SUV"}
